Experimental data pooled from the literature.
Compare with care: the assays were run in different laboratories. “And” joins repeats or separate records; there may be more than shown. ± gives the spread as reported. In brackets after ≈: the same amount, converted by molar mass.
rep main protease: Replicase polyprotein 1ab, main protease (rep, Severe acute respiratory syndrome coronavirus 2, UniProt P0DTD1)

| SMILES | target or system | test | test system | setting | scale | endpoint | result |
| --- | --- | --- | --- | --- | --- | --- | --- |
| CC(C)=CCc1c(O)ccc(C(=O)/C=C/c2ccc(O)cc2)c1O | Severe acute respiratory syndrome coronavirus 2 | cytopathic effect | Vero C1008 | 3.125 µM | – | inhibition | 0% |
| COc1cc(C(=O)OCCCN2CCCN(CCCOC(=O)c3cc(OC)c(OC)c(OC)c3)CC2)cc(OC)c1OC | SARS-CoV-2 | viral replication, high-content imaging screen | – | cell-based | – | EC50 | > 100 µM |
| Nc1ncnc2c([C@@H]3N[C@H](CO)[C@@H](O)[C@H]3O)c[nH]c12 | Marburg virus | viral replication, antibody staining | HeLa, Musoke | 0.4 µM, 24 h | – | infected cells | 12.9% |
| O=C(NCCCN1CCCCC1)c1cc(Sc2ccc(Cl)cc2)nc2ccccc12 | SARS-CoV-2 | cytopathic effect | USA_WA1/2020 | retest 8-point | – | efficacy | 99.3% |
| CCn1cc(-c2ccnc3[nH]c(-c4cccc(CN(C)C)c4)cc23)c(-c2ccc(NC(=O)N(C)C)cc2)n1 | SARS-CoV-2 | viral replication, high-content imaging screen | – | cell-based | – | EC50 | > 100 µM |
| O=C(O)c1n[nH]cc1CN1CCCN(Cc2ccccc2F)CC1 | Lassa mammarenavirus | viral replication | Huh-7 | 10 µM, 72 h | – | remaining activity | 29% |
| CC1CCCCN1CCCNC(=O)c1cc(Sc2ccc(Cl)cc2)nc2ccccc12 (stereo not shown) | SARS-CoV-2 | cytopathic effect | USA_WA1/2020 | first round 5-point | – | maximum response | 91.7% |
| O=C(NCC1(c2cccc(F)c2)CCOCC1)c1cnn[nH]1 | Lassa mammarenavirus | viral replication | Huh-7 | 10 µM, 72 h | – | remaining activity | 41% |
| Cn1cnc(Cn2c(=O)[nH]/c(=N\c3cc4cn(C)nc4cc3Cl)n(Cc3cc(F)c(F)cc3F)c2=O)n1 | – | – | human, severe renal impairment | oral, 375 mg, hypertriglyceridaemia TEAE, Mild severity | – | patients with adverse event | 0% |
| CCCC(C(=O)OCCN(CC)CC)(c1ccccc1)c1ccccc1 | SARS-CoV-2 | viral replication, GFP plate reader screen | – | cell-based | – | EC50 | 5.13 µM |
| CCC(CC)COC(=O)[C@H](C)N[P@](=O)(OC[C@H]1O[C@@](C#N)(c2ccc3c(N)ncnn23)[C@H](O)[C@@H]1O)Oc1ccccc1 | SARS-CoV-2 replicon | N-HiBiT luminescence | HeLa | 0.01 µM | baseline: DMSO | replicon activity | 166% and 89.1% and 111% and 94.5% |
| O=C(Nc1ccc(N2CCN(C(=O)c3cnccn3)CC2)nc1)c1cccc(Br)c1 | Mycobacterium tuberculosis | bacterial growth | H37Ra-lux | 168 h | – | IC90 | > 64 µM |
| NC(=S)N/N=C(/c1cccc(O)c1)c1cccc(Br)c1 | rep main protease | viral replication, mKate2 reporter | SARS-CoV-2 | 20 µM | – | inhibition | 1.01% |
| NCCCCCc1cnc[nH]1 | Marburg virus | pseudovirus entry | A549 | – | baseline: CC50 over IC50 | selectivity index | 1 |
| O=C(CCC1CCCCC1)Nc1nc(-c2ccccc2)cs1 | Histoplasma capsulatum | microbial growth | – | – | – | MIC | > 20 µM |
| Oc1ccccc1-c1nc(-c2cccs2)c(-c2cccs2)[nH]1 | SARS-CoV-2 | cytopathic effect, cell-based CPE | USA_WA1/2020 | round 1, 5-point dilution | – | AC50 | 12.6 µM |
| Cc1cccc(-c2ncc(CN3CCN(CC(=O)N4CCCC4)CC3)cn2)c1 | Lassa mammarenavirus | viral replication | Huh-7 | 10 µM, 72 h | – | remaining activity | 37% |
| CCc1c(C(=O)C(N)=O)c2c(OCC(=O)O)cccc2n1Cc1ccccc1 | Daboia russelii | – | mouse | intravenous, 120 µg/mouse, 24 h, drug mixture, added: venom 2.5 x LD50 preincubated | – | survival | 40% |
| Cc1nc2n(n1)CC(=O)N[C@@H](C(C)C)CN(C(=O)c1cccnc1)CC(=O)N[C@@H](CC(C)C)c1nc(cs1)C(=O)N[C@H]2Cc1ccccc1 | Lassa mammarenavirus | viral replication | Huh-7 | 10 µM, 72 h | – | remaining activity | 90% |
| CCN1CCN(c2cc(C)c3cc(NC(=O)c4cccc(Cl)c4)ccc3n2)CC1 | SARS-CoV-2 | cytopathic effect | USA_WA1/2020 | round 1, 5-point | – | efficacy | 108% |
| O=C(O[C@@H]1Cc2c(O)cc(O)cc2O[C@@H]1c1cc(O)c(O)c(O)c1)c1cc(O)c(O)c(O)c1 | Severe acute respiratory syndrome coronavirus 2 | cytopathic effect, inhibitor | Vero C1008 | 25 µM | – | inhibition | 16.7% |
| CN1CCC(OC(=O)C(Oc2ccc(Cl)cc2)Oc2ccc(Cl)cc2)CC1 | SARS-CoV-2 | viral replication, GFP plate reader screen | – | cell-based | – | EC50 | > 100 µM |

| SMILES | target or system | test | test system | setting | scale | endpoint | result |
| --- | --- | --- | --- | --- | --- | --- | --- |
| O=C(Nc1ccc(N2CCCN(C(=O)c3cnccn3)CC2)nc1)c1ccc(Br)cc1 | Mycobacterium tuberculosis | bacterial growth | H37Ra-lux | 168 h | – | IC90 | 3.88 µM |
| CC[C@H](C)[C@H](NC(=O)[C@H](CC(C)C)NC(=O)[C@H](Cc1c[nH]c2ccccc12)NC(=O)[C@H](CCC(N)=O)NC(=O)[C@@H](NC(=O)[C@H](Cc1ccccc1)NC(=O)[C@H](C)NC(=O)[C@H](CCCCNC(=O)COCCOCCNC(=O)COCCOCCNC(=O)CC[C@H](NC(=O)CCCCCCCCCCCCCCCCCCC(=O)O)C(=O)O)NC(=O)[C@H](CCC(N)=O)NC(=O)[C@H](C)NC(=O)[C@@H](NC(=O)[C@H](CCCCN)NC(=O)[C@H](CC(=O)O)NC(=O)[C@H](CC(C)C)NC(=O)C(C)(C)NC(=O)[C@@H](NC(=O)[C@H](CO)NC(=O)[C@H](Cc1ccc(O)cc1)NC(=O)[C@H](CC(=O)O)NC(=O)[C@H](CO)NC(=O)[C@@H](NC(=O)[C@H](Cc1ccccc1)NC(=O)[C@@H](NC(=O)CNC(=O)[C@H](CCC(=O)O)NC(=O)C(C)(C)NC(=O)[C@@H](N)Cc1ccc(O)cc1)[C@@H](C)O)[C@@H](C)O)[C@@H](C)CC)[C@@H](C)CC)C(C)C)C(=O)N[C@@H](C)C(=O)NCC(=O)NCC(=O)N1CCC[C@H]1C(=O)N[C@@H](CO)C(=O)N[C@@H](CO)C(=O)NCC(=O)N[C@@H](C)C(=O)N1CCC[C@H]1C(=O)N1CCC[C@H]1C(=O)N1CCC[C@H]1C(=O)N[C@@H](CO)C(N)=O | – | measured: treatment-emergent application site reaction | healthy subjects | 4.5 mg, multiple ascending dose | – | subjects with adverse event | 0% |
| CC(C)(C)NC(=O)N[C@H](C(=O)N1C[C@H]2[C@@H]([C@H]1C(=O)NC(CC1CCC1)C(=O)C(N)=O)C2(C)C)C(C)(C)C (stereo partly shown) | rep main protease | reporter gene (mKate2), inhibitor | – | 20 µM | – | inhibition | 10.1% |
| CCCCNC(=O)C1CCCN(Cc2nc(-c3ccc(Cl)cc3)oc2C)C1 (stereo not shown) | SARS-CoV-2 | cytopathic effect | USA_WA1/2020 | retest, 8-point, duplicates | – | maximum response | 24.9% |
| CCCCCCCCCCCCCCNC(=O)CP(=O)(O)O | Bacillus anthracis | – | Davis | – | – | MIC90 | 1.56 µg/mL (≈ 4.65 µM) |
| CNc1nc(N)ncc1-c1cn([C@@H]2O[C@H](CO[P@@](=O)(N[C@@H](C)C(=O)OC(C)C)Oc3ccccc3)[C@@H](O)[C@@]2(C)F)cn1 | MERS coronavirus | – | – | concentration not given | – | antiviral activity | inactive |
| CC1CCN(CCCNC(=O)c2cc(Sc3ccc(F)cc3)nc3ccccc23)CC1 | SARS-CoV-2 | cytopathic effect, cell-based CPE | USA_WA1/2020 | round 2, 5-point dilution | – | AC50 | 11.2 µM |
| COc1cc(NC(=O)Cc2cnc3c(C)cccn23)ccc1NC(=O)CC(C)C | Lassa mammarenavirus | viral replication | Huh-7 | 10 µM, 72 h | – | remaining activity | 32% |
| CCCN(CCC)CCNC(=O)c1cc(-c2ccc(Br)s2)nc2ccccc12 | SARS-CoV-2 | cytopathic effect, cell-based CPE | USA_WA1/2020 | round 2, 5-point dilution | – | AC50 | 10 µM |
| Cc1nc2n(n1)CC(=O)N[C@@H](C(C)C)CN(C(=O)C1(C)CC1)CC(=O)N[C@@H](CC(C)C)c1nc(cs1)C(=O)N[C@H]2Cc1ccccc1 | Lassa mammarenavirus | viral replication | Huh-7 | 10 µM, 72 h | – | remaining activity | 99% |
| CC(C)CN(C[C@@H](O)[C@H](Cc1ccccc1)NC(=O)O[C@H]1CO[C@H]2OCC[C@H]21)S(=O)(=O)c1ccc2nc(NC3CCN(C4CCCC4)CC3)sc2c1 | SARS-CoV-2 | viral replication, high-content imaging screen | – | cell-based | – | EC50 | > 100 µM |
| CNc1ncccc1C(=O)N1CC(=O)N[C@@H](CC(C)C)c2nc(cs2)C(=O)N[C@@H](Cc2ccccc2)c2nc(C)nn2CC(=O)N[C@@H](C(C)C)C1 | Lassa mammarenavirus | viral replication | Huh-7 | 10 µM, 72 h | – | remaining activity | 103% |
| CN(C)c1cccc(C(=O)NCC2CCN(c3cc(-c4ccc(Cl)cc4)n[nH]3)CC2)c1 | SARS-CoV-2 | cytopathic effect, cell-based CPE | USA_WA1/2020 | round 2, 5-point dilution | – | AC50 | 12.6 µM |
| O=C1c2c(O)c(=O)ccn2N([C@@H]2c3ccccc3SCc3c2ccc(F)c3F)[C@@H]2COCCN12 | Influenza A virus H5N1 | viral replication, plaque reduction | A/duck/Bangladesh/27892/2015 | – | – | EC50 | 0.00026 ± 2e-05 µM |
| COc1ccc(C[C@@H]2c3cc(Oc4cc(C[C@@H]5c6cc(O)c(OC)cc6CCN5C)ccc4O)c(OC)cc3CCN2C)cc1 | SARS-CoV-2 | viral replication | Vero E6 | 100 µM | – | CPE inhibition | 75% |
| COC(=O)N[C@H](C(=O)N1CCC[C@H]1c1ncc(-c2ccc3cc(-c4ccc5nc([C@@H]6CCCN6C(=O)[C@@H](NC(=O)OC)C(C)C)[nH]c5c4)ccc3c2)[nH]1)C(C)C | SARS-CoV-2 | viral replication, GFP plate reader screen | – | cell-based | – | EC50 | > 100 µM |
| CN1CCN(C(c2ccccc2)c2ccccc2)CC1 | Marburg virus | pseudovirus entry | A549 | – | baseline: CC50 over IC50 | selectivity index | > 5 |
| c1ccc(C(O[C@@H]2CCCN(CCc3ccc4c(c3)OCO4)C2)c2ccccc2)cc1 | SARS-CoV-2 | viral replication, GFP plate reader screen | – | cell-based | – | EC50 | > 100 µM |
| CC(C)C1CN(C(=O)c2ccc3cccnc3c2O)CCCN1CC1CC1 (stereo not shown) | Lassa mammarenavirus | viral replication | Huh-7 | 10 µM, 72 h | – | remaining activity | 1% |
| CN1CCN(CCCN2c3ccccc3Sc3ccc(S(=O)(=O)N(C)C)cc32)CC1 | SARS-CoV-2 | viral replication, GFP plate reader screen | – | cell-based | – | EC50 | 13.2 µM |
| N=C(N)c1ccc2cc(OC(=O)c3ccc(N=C(N)N)cc3)ccc2c1 | Daboia russelii | – | mouse | intravenous, 120 µg/mouse, 24 h, drug mixture, added: RJ venom 2.5 x LD50 preincubated | – | survival | 0% |

Excerpt of the above:
| SMILES | target or system | test | test system | setting | scale | endpoint | result |
| --- | --- | --- | --- | --- | --- | --- | --- |
| CN1CCN(CCCN2c3ccccc3Sc3ccc(S(=O)(=O)N(C)C)cc32)CC1 | SARS-CoV-2 | viral replication, GFP plate reader screen | – | cell-based | – | EC50 | 13.2 µM |
| O=C(CCC1CCCCC1)Nc1nc(-c2ccccc2)cs1 | Histoplasma capsulatum | microbial growth | – | – | – | MIC | > 20 µM |
| O=C(Nc1ccc(N2CCN(C(=O)c3cnccn3)CC2)nc1)c1cccc(Br)c1 | Mycobacterium tuberculosis | bacterial growth | H37Ra-lux | 168 h | – | IC90 | > 64 µM |
| COc1ccc(C[C@@H]2c3cc(Oc4cc(C[C@@H]5c6cc(O)c(OC)cc6CCN5C)ccc4O)c(OC)cc3CCN2C)cc1 | SARS-CoV-2 | viral replication | Vero E6 | 100 µM | – | CPE inhibition | 75% |
| O=C(O[C@@H]1Cc2c(O)cc(O)cc2O[C@@H]1c1cc(O)c(O)c(O)c1)c1cc(O)c(O)c(O)c1 | Severe acute respiratory syndrome coronavirus 2 | cytopathic effect, inhibitor | Vero C1008 | 25 µM | – | inhibition | 16.7% |
